Assay results gathered from unrelated publications.
Protocols differ between the studies behind these lines. ± marks the error that the study gave.
HLA class I histocompatibility antigen, A alpha chain allele A*01:01: HLA class I histocompatibility antigen, A alpha chain, allele A*01:01 (Homo sapiens, UniProt P04439)
HLA class I histocompatibility antigen, A alpha chain allele A*02:01: HLA class I histocompatibility antigen, A alpha chain, allele A*02:01 (Homo sapiens, UniProt P04439)
HLA class I histocompatibility antigen, A alpha chain allele A*26:01: HLA class I histocompatibility antigen, A alpha chain, allele A*26:01 (Homo sapiens, UniProt P04439)
HLA class I histocompatibility antigen, A alpha chain allele A*24:02: HLA class I histocompatibility antigen, A alpha chain, allele A*24:02 (Homo sapiens, UniProt P04439)
Chain of UniProt O15244 (whole entry, looked up): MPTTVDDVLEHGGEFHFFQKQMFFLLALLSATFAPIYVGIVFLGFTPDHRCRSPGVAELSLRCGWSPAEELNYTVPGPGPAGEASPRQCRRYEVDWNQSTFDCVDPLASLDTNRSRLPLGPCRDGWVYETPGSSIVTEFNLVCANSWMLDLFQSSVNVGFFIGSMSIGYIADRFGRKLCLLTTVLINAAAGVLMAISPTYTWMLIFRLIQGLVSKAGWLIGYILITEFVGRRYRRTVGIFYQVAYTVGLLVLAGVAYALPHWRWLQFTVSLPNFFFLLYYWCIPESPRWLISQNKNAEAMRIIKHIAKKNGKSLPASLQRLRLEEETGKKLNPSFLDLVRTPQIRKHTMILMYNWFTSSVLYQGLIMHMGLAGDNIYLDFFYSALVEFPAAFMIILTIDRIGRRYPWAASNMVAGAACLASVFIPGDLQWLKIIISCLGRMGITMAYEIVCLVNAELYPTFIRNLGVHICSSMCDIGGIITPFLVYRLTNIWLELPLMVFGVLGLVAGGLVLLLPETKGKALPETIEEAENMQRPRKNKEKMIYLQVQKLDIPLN
Chain of UniProt P56817 (whole entry, looked up): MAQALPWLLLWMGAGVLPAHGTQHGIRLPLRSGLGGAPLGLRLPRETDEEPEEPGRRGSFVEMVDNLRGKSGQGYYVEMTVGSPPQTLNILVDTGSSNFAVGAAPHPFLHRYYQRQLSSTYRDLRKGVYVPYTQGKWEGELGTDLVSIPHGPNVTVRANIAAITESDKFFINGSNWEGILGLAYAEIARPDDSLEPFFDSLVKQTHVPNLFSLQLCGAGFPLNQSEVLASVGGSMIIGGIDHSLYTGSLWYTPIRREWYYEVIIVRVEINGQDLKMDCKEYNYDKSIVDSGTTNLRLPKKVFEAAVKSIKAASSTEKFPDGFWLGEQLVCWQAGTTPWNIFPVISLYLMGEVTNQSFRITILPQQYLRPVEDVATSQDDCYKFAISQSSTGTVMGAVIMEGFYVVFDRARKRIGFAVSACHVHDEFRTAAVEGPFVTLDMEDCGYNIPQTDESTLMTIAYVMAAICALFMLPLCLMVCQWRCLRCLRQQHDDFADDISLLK
Chain of UniProt P04756 (whole entry, looked up): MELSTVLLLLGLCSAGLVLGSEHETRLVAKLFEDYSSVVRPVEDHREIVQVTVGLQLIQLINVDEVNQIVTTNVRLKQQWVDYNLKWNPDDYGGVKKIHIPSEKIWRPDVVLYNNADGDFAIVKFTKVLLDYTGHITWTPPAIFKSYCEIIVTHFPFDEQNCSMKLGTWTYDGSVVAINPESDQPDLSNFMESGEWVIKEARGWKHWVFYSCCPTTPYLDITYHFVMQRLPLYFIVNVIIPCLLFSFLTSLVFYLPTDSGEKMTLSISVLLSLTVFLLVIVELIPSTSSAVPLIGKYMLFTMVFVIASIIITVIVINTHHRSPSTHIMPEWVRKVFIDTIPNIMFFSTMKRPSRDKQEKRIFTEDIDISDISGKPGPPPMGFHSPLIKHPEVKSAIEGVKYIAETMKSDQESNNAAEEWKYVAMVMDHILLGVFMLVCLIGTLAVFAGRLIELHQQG
Chain of UniProt P09690 (whole entry, looked up): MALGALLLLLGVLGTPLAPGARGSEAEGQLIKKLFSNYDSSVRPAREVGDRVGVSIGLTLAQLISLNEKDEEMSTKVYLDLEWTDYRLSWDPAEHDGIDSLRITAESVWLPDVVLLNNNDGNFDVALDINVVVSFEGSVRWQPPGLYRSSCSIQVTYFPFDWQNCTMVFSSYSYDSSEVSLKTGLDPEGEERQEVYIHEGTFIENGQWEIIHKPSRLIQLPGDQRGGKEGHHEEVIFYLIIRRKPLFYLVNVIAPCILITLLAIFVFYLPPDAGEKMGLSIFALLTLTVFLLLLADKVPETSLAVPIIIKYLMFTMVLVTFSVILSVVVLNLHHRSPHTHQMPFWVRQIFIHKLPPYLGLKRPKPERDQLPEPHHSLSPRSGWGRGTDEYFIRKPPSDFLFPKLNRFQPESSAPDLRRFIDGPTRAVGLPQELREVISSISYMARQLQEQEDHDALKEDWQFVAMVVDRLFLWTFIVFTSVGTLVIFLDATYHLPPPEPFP
Chain of UniProt P56494 (whole entry, looked up): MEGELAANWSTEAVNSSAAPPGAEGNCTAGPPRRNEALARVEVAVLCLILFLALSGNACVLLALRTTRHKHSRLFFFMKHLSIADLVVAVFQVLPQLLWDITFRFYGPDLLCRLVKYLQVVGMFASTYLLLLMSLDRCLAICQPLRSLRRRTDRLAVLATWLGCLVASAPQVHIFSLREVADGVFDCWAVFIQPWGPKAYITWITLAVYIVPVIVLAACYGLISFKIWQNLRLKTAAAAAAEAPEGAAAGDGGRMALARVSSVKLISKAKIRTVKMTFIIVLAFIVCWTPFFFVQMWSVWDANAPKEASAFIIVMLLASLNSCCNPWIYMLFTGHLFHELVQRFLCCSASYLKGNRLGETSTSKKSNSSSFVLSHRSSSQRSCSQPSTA
Chain of UniProt P02716 (whole entry, looked up): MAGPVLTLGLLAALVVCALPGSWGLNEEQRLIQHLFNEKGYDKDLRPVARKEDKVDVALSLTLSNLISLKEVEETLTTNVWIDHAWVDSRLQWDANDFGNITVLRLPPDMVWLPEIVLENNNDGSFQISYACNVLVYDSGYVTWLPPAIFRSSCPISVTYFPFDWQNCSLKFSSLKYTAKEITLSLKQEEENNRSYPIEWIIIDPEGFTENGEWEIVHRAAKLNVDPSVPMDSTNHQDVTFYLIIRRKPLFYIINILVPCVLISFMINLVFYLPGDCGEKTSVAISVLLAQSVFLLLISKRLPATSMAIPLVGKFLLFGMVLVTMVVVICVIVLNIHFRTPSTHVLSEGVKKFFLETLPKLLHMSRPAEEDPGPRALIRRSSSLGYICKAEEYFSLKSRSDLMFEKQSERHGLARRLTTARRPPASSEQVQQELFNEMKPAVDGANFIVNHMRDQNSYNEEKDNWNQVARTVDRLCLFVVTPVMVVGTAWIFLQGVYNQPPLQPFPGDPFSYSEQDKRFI
Chain of UniProt O00204 (whole entry, unmodified, looked up): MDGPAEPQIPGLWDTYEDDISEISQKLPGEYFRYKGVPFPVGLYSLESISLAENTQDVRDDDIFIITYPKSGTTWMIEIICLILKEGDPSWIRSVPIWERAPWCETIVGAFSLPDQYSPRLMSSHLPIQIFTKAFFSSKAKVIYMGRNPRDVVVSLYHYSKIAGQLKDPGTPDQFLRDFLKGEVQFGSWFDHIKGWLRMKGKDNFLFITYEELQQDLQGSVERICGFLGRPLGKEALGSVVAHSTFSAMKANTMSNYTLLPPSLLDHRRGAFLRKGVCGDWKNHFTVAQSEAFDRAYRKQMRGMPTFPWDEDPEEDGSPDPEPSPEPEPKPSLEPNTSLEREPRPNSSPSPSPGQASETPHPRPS
Chain of UniProt P28222 (whole entry, looked up): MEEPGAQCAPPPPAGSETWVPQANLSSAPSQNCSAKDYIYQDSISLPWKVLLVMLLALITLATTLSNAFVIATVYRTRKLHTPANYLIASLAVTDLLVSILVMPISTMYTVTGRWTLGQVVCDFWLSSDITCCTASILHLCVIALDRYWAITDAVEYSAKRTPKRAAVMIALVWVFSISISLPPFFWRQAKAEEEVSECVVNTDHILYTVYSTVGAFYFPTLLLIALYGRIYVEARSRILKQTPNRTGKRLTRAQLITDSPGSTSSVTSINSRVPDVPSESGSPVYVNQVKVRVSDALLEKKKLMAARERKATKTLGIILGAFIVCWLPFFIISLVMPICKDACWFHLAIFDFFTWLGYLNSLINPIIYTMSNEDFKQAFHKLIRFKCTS
Chain of UniProt P31323 (whole entry, looked up): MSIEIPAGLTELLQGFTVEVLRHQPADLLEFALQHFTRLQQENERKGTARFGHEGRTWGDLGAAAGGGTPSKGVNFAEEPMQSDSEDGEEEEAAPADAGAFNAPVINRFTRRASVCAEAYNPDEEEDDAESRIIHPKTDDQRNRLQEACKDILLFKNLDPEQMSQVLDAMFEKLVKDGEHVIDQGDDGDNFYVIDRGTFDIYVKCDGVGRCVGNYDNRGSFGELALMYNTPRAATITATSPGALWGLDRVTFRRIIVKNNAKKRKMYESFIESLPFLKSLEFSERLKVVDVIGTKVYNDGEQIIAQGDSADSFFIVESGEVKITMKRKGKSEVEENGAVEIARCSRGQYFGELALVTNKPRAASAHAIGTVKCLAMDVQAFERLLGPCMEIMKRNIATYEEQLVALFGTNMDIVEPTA
Chain of UniProt P20782 (whole entry, looked up): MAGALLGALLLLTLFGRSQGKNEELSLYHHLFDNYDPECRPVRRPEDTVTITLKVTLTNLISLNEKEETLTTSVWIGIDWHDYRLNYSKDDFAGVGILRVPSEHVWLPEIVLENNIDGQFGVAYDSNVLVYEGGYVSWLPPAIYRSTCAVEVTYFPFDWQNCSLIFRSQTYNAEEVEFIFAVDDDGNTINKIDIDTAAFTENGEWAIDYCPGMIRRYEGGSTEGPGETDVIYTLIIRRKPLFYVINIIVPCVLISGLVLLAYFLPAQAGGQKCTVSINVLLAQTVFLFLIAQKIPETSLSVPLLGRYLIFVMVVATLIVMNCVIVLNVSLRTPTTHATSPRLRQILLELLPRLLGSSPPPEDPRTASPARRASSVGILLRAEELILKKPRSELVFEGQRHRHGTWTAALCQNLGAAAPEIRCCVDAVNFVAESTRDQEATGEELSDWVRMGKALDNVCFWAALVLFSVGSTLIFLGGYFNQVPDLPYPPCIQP
Chain of UniProt P56069 (whole entry, looked up): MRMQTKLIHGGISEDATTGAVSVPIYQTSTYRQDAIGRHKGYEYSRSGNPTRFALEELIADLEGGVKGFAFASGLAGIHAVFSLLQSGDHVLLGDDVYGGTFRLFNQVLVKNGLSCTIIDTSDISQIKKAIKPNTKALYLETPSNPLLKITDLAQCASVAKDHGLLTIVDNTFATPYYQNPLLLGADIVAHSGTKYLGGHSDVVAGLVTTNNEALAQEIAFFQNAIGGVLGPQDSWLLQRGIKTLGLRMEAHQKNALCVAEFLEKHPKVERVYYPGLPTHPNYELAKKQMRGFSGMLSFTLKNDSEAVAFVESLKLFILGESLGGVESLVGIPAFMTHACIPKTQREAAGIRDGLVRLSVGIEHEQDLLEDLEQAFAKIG

The IC50 of `COc1ccc2cc3[n+](cc2c1OC)CCc1cc2c(cc1-3)OCO2` is reported as 13.4 µM (uncharacterized protein (Drosophila suzukii, UniProt A0AB39ZCT4); binding, bis-ANS competition fluorescence; pH 7.4, with: bis-ANS).
For `CC(C)[C@H](NC(=O)[C@@H](N)Cc1ccc(O)cc1)C(=O)N[C@@H](Cc1ccc(O)cc1)C(=O)N[C@@H](CCC(N)=O)C(=O)N[C@@H](Cc1c[nH]cn1)C(=O)N1CCC[C@H]1C(=O)N[C@@H](Cc1c[nH]cn1)C(=O)N[C@H](C(=O)N[C@@H](Cc1ccc(O)cc1)C(=O)O)[C@@H](C)O`, the IC50 was 10.4 µM (HLA class I histocompatibility antigen, A alpha chain allele A*01:01; binding).
`COc1ncccc1-c1cnn2ccc(N3CCN(C(=O)OC(C)C)CC3)nc12` gave an IC50 of greater than 30 µM (HTR1B (Homo sapiens, UniProt P28222); liability screen).
For `C[C@H](CCCOS(=O)(=O)O)[C@H]1CC[C@H]2[C@@H]3CC[C@H]4C[C@@H](O)CC[C@]4(C)[C@H]3CC[C@]12C`, the IC50 was 1.99 µM (ADRA2A (Homo sapiens, UniProt P08913); antagonist).
For `NCCNCCNCCN`, the IC50 was 1040 ± 827 µM (XDH (Homo sapiens, UniProt P47989); enzyme activity, inhibitor).
For `CC(C)C[C@H](NC(=O)[C@H](CCC(=O)O)NC(=O)[C@H](CC(C)C)NC(=O)[C@@H]1CCCN1C(=O)[C@H](CCCCN)NC(=O)[C@H](CO)NC(=O)[C@H](Cc1ccc(O)cc1)NC(=O)[C@@H](NC(=O)[C@@H](N)Cc1ccc(O)cc1)[C@@H](C)O)C(=O)O`, the IC50 was 0.11 µM (HLA class I histocompatibility antigen, A alpha chain allele A*02:01; binding).
The IC50 of `COC(=O)c1ccsc1NC(=O)C1CCN(C(C)=O)CC1` is reported as greater than 100 µM (DNA repair protein REV1, C-terminal domain (Homo sapiens, UniProt Q9UBZ9); REV1 C-terminal domain-RIR interaction, inhibitor, fluorescence polarization displacement).
With `CC[C@H](C)[C@H](NC(=O)[C@@H](NC(=O)[C@@H](NC(=O)[C@H](CC(N)=O)NC(=O)[C@@H](NC(=O)[C@H](C)NC(=O)[C@@H](N)CC(N)=O)[C@@H](C)O)C(C)C)C(C)C)C(=O)N[C@@H](CCCCN)C(=O)N[C@H](C(=O)O)C(C)C` the IC50 was 43.4 µM (HLA class I histocompatibility antigen, A alpha chain allele A*26:01; peptide-MHC binding, radioligand competition binding).
`C[C@H]1CN(c2n[nH]c3nc(N[C@H]4CC[C@H](NS(=O)(=O)CCC(F)(F)F)CC4)ncc23)CCO1` has an IC50 of no less than 20 µM (PRKAR2B (Homo sapiens, UniProt P31323); biochemical).
`Nc1c2c(nc3c1C(c1ccc(Cl)c(Cl)c1)c1ccc(OCC(=O)c4ccccc4)cc1O3)CCCC2` (stereo not drawn) has an IC50 of 2.12 µM (Beta-secretase 1 (BACE1, Homo sapiens, UniProt P56817); enzyme activity, inhibitor).
The IC50 of `CC[C@H](C)[C@H](NC(=O)[C@H](CC(=O)O)NC(=O)[C@H](Cc1ccc(O)cc1)NC(=O)[C@H](CCC(N)=O)NC(=O)[C@@H](N)Cc1ccccc1)C(=O)N1CCC[C@H]1C(=O)N[C@@H](Cc1c[nH]cn1)C(=O)N[C@@H](CCC(=O)O)C(=O)N[C@@H](CCSC)C(=O)O` is reported as 74.9 µM (HLA class I histocompatibility antigen, A alpha chain allele A*01:01; binding).
`Nc1ccc([N+](=O)[O-])cc1` gave an IC50 of 28.9 µM (Androgen receptor (AR, Pan troglodytes, UniProt O97775); receptor binding, radioligand binding; Novascreen NVS_NR_cAR).
`CC(C)S[C@@H]1O[C@H](CO)[C@H](O)[C@H](O)[C@H]1O` gave an IC50 of 4.4 µM (lacI (Escherichia coli, UniProt P03023); IPTG binding, competitor, nitrocellulose filter binding; repressor 2 µM monomer, no operator DNA, pH 7.4, with: [14C]IPTG 250 nM).
With `O=C1C=CC(=O)c2c(O)cccc21` the IC50 was 7 ± 0.7 µM (Cystathionine gamma-synthase (metB, Helicobacter pylori, UniProt P56069); inhibitor, coupled spectrophotometric).
`C[C@]12CC[C@H](O)CC1=CC[C@@H]1[C@@H]2CC[C@]2(C)C(n3cnc4ccccc43)=CC[C@@H]12` gave an IC50 of 39 ± 6 µM (Sulfotransferase 2B1 (Homo sapiens, UniProt O00204, S348D); cholesterol sulfonation, DESI-MS; with: cholesterol).
`NC(=O)CC[C@@H]1NC(=O)[C@H](Cc2ccccc2)NC(=O)[C@H](Cc2ccc(O)cc2)NC(=O)[C@@H](N)CSSC[C@@H](C(=O)N2CCC[C@H]2C(=O)N[C@@H](CCCN=C(N)N)C(=O)NCC(N)=O)NC(=O)[C@H](CC(N)=O)NC1=O` gave an IC50 of 0.011 µM (Oxytocin receptor (Macaca mulatta, UniProt P56494); membrane hyperpolarisation, FMP blue membrane potential dye; CHO cells; with: pertussis toxin 150 ng/mL, 24 h pretreatment).
With `Cn1cnc(Br)c1C1=CN(c2ncnc3[nH]cnc23)CCS1` the IC50 was 1 µM (PRKACA/DNAJB1 (Homo sapiens, UniProt P17612+P25685)).
`CNC(C)Cc1ccc2n[se]nc2c1` (stereo not drawn) has an IC50 of 68.3 ± 30.5 µM (SLC22A2 (Homo sapiens, UniProt O15244)).
`C[N+]1(C)CCN(c2ccccc2Cl)CC1` gave an IC50 of 245 ± 77 µM (Nicotinic acetylcholine receptor alpha1/beta1/epsilon/delta (Mus musculus, UniProt P02716+P04756+P09690+P20782); ion current, inhibitor, two-electrode voltage clamp; Xenopus oocytes).
`CC(C)C[C@H](NC(=O)[C@@H]1CCCN1C(=O)[C@H](Cc1c[nH]c2ccccc12)NC(=O)[C@H](CC(=O)O)NC(=O)[C@H](Cc1ccc(O)cc1)NC(=O)[C@@H](NC(=O)[C@@H](N)Cc1ccc(O)cc1)C(C)C)C(=O)N[C@H](C(=O)N[C@@H](Cc1ccccc1)C(=O)O)[C@@H](C)O` gave an IC50 of 0.566 µM (HLA class I histocompatibility antigen, A alpha chain allele A*24:02; binding).
`COc1cc(Nc2ncc(F)c(Nc3ccc4c(n3)NC(=O)C(C)(C)O4)n2)cc(OC)c1OC` gave an IC50 of greater than 10 µM (phospholipase C; enzyme activity, inhibitor).
`CC[C@H](C)[C@H](NC(=O)[C@@H](N)CCCNC(=N)N)C(=O)N[C@@H](Cc1ccc(O)cc1)C(=O)NCC(=O)N1CCC[C@H]1C(=O)N1CCC[C@H]1C(=O)N[C@@H](Cc1c[nH]cn1)C(=O)N[C@@H](CCC(N)=O)C(=O)N[C@@H](Cc1ccccc1)C(=O)O` gave an IC50 of 5.75 µM (HLA class I histocompatibility antigen, A alpha chain allele A*02:01; binding).
For `CC(C)C[C@H](NC(=O)[C@H](CCC(N)=O)NC(=O)[C@H](CC(=O)O)NC(=O)[C@H](C)NC(=O)[C@@H](N)Cc1c[nH]cn1)C(=O)N[C@H](C(=O)N1CCC[C@H]1C(=O)N[C@H](C(=O)N[C@@H](Cc1c[nH]c2ccccc12)C(=O)O)[C@@H](C)O)[C@@H](C)O`, the IC50 was greater than 70 µM (HLA class I histocompatibility antigen, A alpha chain allele A*02:01; peptide-MHC binding, radioligand competition binding).
`CC[C@H](C)[C@H](NC(=O)[C@H](Cc1c[nH]cn1)NC(=O)[C@H](CCCCN)NC(=O)[C@H](Cc1ccc(O)cc1)NC(=O)[C@@H](NC(=O)[C@@H](N)Cc1c[nH]cn1)C(C)C)C(=O)N[C@@H](CC(C)C)C(=O)N[C@H](C(=O)N[C@@H](Cc1ccccc1)C(=O)O)[C@@H](C)O` gave an IC50 of 76.1 µM (HLA class I histocompatibility antigen, A alpha chain allele A*01:01; binding).
The IC50 of `O=c1c(-c2ccccc2)c(O)c2cc(-c3cccc(-c4ccccc4)c3)cnc2n1O` is reported as 0.01 µM (Holliday junction resolvase (Fowlpox virus, UniProt Q9J546)).
For `NC(=O)c1cccc(-c2cccc(OC(=O)NCCCCCCc3ccccc3)c2)c1`, the IC50 was less than 0.005 µM (Faah (Rattus norvegicus, UniProt P97612); inhibitor; with: FP-biotin 1 µM).
The IC50 of `CC[C@H](C)[C@H](NC(=O)[C@@H]1CCCN1C(=O)[C@H](Cc1c[nH]cn1)NC(=O)[C@H](CCCCN)NC(=O)[C@H](Cc1ccccc1)NC(=O)[C@H](CC(C)C)NC(=O)[C@@H](N)CCCCN)C(=O)N[C@@H](CCC(N)=O)C(=O)N[C@@H](CC(C)C)C(=O)O` is reported as 3.46 µM (HLA class I histocompatibility antigen, A alpha chain allele A*24:02; binding).
`COc1cc(C2=CCCCc3c2ccc(OC)c3OC(=O)N(C)CCN(C)C(=O)OCc2ccc(NC(=O)[C@H](CCCNC(N)=O)NC(=O)[C@@H](NC(=O)CCCCCN3C(=O)C=CC3=O)C(C)C)cc2)cc(OC)c1OC` gave an IC50 of 3.5 ± 0.2 µM (Tubulin alpha-1B chain/TUBB2B (Bos taurus, UniProt P81947+Q6B856); tubulin polymerization, inhibitor; bovine protein).
`CC[C@H](C)[C@H](NC(=O)[C@H](Cc1c[nH]cn1)NC(=O)CNC(=O)[C@H](Cc1ccc(O)cc1)NC(=O)[C@H](CCC(N)=O)NC(=O)[C@@H](N)Cc1c[nH]cn1)C(=O)N[C@@H](CC(C)C)C(=O)N[C@@H](CCC(N)=O)C(=O)N[C@@H](Cc1ccc(O)cc1)C(=O)O` gave an IC50 of 67.5 µM (HLA class I histocompatibility antigen, A alpha chain allele A*24:02; binding).
The IC50 of `CC[C@H](C)[C@H](NC(=O)[C@@H](NC(=O)[C@@H](NC(=O)[C@H](CC(N)=O)NC(=O)[C@@H](NC(=O)[C@H](CO)NC(=O)[C@H](CC(N)=O)NC(=O)[C@H](CC(C)C)NC(=O)[C@@H](N)Cc1ccc(O)cc1)[C@@H](C)O)C(C)C)[C@@H](C)O)C(=O)O` is reported as greater than 70 µM (HLA class I histocompatibility antigen, A alpha chain allele A*26:01; peptide-MHC binding, radioligand competition binding).

Excerpt of the above:
`CNC(C)Cc1ccc2n[se]nc2c1` (stereo not drawn) has an IC50 of 68.3 ± 30.5 µM (SLC22A2 (Homo sapiens, UniProt O15244)).
With `Cn1cnc(Br)c1C1=CN(c2ncnc3[nH]cnc23)CCS1` the IC50 was 1 µM (PRKACA/DNAJB1 (Homo sapiens, UniProt P17612+P25685)).
The IC50 of `CC[C@H](C)[C@H](NC(=O)[C@H](CC(=O)O)NC(=O)[C@H](Cc1ccc(O)cc1)NC(=O)[C@H](CCC(N)=O)NC(=O)[C@@H](N)Cc1ccccc1)C(=O)N1CCC[C@H]1C(=O)N[C@@H](Cc1c[nH]cn1)C(=O)N[C@@H](CCC(=O)O)C(=O)N[C@@H](CCSC)C(=O)O` is reported as 74.9 µM (HLA class I histocompatibility antigen, A alpha chain allele A*01:01; binding).
